Assay results gathered from unrelated publications.
Lines come from different studies, so protocols differ. ± marks the error that the study gave.
cathepsin B: cathepsin B (Capra hircus, UniProt A0A452G2V1)
AGTR2: Type-2 angiotensin II receptor (AGTR2, Homo sapiens, UniProt P50052)
Chain of UniProt P50052 (whole entry, unmodified, looked up): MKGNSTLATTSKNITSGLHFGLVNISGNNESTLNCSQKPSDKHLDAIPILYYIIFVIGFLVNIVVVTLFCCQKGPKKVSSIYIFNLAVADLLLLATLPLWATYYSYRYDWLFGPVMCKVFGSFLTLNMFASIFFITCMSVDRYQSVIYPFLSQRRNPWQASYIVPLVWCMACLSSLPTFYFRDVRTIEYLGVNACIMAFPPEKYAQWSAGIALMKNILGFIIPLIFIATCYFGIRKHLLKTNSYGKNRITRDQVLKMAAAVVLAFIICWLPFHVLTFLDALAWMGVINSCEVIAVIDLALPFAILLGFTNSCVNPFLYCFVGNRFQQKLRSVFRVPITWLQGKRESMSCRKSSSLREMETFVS
DRD4: D(4) dopamine receptor (DRD4, Homo sapiens, UniProt P21917)
Chain of UniProt P21917 (whole entry, looked up): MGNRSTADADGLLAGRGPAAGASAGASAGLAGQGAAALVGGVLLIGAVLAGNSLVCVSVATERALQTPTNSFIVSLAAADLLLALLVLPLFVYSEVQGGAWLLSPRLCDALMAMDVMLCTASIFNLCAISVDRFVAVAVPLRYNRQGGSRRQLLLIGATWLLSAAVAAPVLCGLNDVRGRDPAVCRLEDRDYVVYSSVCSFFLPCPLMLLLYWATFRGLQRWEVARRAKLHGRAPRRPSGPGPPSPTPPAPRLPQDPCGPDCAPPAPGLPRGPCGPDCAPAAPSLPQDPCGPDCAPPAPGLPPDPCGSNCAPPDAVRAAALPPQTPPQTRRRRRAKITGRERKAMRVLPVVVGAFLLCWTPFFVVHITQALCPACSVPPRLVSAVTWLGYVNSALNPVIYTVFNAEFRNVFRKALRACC
Hypoxanthine-guanine phosphoribosyltransferase: Hypoxanthine-guanine phosphoribosyltransferase (Homo sapiens, UniProt P00492)
Chain of UniProt P00492 (whole entry, looked up): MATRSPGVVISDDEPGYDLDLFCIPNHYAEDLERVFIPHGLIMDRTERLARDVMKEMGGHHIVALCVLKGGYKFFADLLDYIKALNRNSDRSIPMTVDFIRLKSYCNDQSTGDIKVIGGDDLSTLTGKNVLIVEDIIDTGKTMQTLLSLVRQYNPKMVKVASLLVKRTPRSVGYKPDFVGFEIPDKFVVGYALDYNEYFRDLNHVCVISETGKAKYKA
Vitamin D3 receptor: Vitamin D3 receptor (Rattus norvegicus, UniProt P13053)
Chain of UniProt P13053 (whole entry, looked up): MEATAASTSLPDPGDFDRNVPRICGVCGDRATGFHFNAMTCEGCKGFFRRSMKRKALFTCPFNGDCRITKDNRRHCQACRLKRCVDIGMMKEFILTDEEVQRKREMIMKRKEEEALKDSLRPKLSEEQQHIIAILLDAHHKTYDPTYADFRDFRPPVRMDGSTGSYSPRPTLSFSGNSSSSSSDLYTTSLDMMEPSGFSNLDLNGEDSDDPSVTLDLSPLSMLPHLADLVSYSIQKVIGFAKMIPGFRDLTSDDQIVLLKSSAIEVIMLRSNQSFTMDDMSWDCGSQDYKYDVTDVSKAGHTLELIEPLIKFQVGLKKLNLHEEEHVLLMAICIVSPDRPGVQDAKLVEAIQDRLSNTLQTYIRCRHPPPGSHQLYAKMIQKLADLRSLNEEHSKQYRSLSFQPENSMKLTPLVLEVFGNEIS
CREBBP KIX domain: CREB-binding protein, KIX domain (CREBBP, Homo sapiens, UniProt Q92793)
Chain of UniProt Q92793 (whole entry, looked up): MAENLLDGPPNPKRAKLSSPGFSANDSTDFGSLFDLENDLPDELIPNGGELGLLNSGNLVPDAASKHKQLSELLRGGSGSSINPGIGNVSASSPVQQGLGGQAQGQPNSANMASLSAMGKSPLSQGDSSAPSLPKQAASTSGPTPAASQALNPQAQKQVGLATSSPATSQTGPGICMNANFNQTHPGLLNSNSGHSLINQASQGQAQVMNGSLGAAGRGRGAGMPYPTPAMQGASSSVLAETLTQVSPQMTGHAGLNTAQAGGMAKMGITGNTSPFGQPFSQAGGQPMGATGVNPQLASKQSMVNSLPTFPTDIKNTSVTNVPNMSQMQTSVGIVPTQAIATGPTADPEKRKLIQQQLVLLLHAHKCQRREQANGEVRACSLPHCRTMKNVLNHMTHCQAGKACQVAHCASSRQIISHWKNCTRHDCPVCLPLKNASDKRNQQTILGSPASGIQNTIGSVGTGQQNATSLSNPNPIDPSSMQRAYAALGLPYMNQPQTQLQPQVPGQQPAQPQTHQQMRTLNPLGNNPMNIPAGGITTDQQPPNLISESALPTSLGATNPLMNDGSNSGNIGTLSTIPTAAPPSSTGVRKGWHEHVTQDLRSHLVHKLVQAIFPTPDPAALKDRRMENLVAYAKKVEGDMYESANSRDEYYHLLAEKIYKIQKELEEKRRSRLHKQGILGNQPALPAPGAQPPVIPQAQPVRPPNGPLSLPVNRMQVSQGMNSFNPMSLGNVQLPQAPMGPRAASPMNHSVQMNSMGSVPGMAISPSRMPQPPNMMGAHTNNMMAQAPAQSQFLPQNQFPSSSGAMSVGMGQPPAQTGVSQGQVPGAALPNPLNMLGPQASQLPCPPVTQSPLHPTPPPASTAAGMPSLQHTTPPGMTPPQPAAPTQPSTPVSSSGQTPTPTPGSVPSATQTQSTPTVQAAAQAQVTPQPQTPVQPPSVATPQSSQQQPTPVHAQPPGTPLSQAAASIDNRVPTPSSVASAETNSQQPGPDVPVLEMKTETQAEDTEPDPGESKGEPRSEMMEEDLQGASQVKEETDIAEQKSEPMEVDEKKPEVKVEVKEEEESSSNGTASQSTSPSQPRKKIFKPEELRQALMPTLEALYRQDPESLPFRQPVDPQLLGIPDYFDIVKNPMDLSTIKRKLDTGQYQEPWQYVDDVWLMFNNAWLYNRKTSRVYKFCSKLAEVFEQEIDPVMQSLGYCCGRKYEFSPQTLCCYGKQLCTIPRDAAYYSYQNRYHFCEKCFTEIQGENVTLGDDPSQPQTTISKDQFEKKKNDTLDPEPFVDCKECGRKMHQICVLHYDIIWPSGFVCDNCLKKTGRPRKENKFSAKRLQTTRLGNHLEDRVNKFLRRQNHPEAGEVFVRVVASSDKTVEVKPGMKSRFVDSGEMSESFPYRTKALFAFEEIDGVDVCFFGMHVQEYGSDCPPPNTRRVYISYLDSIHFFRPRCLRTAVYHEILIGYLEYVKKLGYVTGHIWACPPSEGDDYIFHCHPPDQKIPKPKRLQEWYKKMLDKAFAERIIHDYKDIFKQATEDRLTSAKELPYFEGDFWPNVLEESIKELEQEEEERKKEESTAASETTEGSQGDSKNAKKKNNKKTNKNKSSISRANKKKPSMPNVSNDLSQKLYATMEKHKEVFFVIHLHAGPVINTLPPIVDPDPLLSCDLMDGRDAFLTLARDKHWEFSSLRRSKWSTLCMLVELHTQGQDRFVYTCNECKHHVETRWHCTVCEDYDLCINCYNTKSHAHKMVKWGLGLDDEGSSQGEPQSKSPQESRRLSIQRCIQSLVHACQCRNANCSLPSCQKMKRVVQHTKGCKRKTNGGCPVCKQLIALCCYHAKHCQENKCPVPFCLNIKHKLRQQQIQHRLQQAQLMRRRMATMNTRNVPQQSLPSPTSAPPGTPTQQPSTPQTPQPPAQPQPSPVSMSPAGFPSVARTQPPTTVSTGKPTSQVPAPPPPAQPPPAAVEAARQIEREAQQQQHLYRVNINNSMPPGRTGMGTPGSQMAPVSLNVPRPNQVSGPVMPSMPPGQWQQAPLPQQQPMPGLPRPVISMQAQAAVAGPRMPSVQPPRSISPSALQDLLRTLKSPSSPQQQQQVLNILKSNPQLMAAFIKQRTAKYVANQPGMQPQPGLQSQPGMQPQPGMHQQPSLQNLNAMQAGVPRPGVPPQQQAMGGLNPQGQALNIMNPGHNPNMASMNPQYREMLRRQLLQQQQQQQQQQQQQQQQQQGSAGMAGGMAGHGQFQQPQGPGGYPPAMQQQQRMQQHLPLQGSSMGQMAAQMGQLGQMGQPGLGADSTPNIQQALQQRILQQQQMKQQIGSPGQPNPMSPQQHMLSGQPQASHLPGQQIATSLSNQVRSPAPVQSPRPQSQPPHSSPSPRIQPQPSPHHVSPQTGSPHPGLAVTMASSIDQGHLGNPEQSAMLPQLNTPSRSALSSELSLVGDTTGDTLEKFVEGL
MAPK1: Mitogen-activated protein kinase 1 (MAPK1, Homo sapiens, UniProt P28482)
Chain of UniProt P28482 (whole entry, looked up): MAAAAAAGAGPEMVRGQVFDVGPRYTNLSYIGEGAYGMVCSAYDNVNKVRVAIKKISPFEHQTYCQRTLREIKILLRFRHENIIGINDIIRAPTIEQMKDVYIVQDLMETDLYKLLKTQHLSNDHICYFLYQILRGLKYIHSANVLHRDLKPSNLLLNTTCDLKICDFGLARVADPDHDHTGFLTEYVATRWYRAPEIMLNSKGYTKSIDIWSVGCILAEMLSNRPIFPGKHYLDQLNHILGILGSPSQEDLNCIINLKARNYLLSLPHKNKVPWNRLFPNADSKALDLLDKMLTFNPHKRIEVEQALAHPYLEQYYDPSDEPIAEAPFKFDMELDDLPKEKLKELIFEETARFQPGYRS
Chain of UniProt P10111 (whole entry, looked up): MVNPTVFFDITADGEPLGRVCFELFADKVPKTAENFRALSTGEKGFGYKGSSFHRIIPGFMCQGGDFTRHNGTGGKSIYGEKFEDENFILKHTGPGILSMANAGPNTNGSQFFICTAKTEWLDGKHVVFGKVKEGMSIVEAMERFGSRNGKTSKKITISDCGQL
Chain of UniProt Q6GI75 (whole entry, looked up): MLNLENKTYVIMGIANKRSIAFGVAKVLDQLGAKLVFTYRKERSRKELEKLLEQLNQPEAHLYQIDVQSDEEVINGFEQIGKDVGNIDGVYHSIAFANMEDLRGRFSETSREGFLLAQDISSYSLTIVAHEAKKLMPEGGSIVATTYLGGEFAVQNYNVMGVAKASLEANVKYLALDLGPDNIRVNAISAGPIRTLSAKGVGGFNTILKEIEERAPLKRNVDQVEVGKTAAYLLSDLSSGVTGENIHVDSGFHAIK
Chain of UniProt P29275 (whole entry, looked up): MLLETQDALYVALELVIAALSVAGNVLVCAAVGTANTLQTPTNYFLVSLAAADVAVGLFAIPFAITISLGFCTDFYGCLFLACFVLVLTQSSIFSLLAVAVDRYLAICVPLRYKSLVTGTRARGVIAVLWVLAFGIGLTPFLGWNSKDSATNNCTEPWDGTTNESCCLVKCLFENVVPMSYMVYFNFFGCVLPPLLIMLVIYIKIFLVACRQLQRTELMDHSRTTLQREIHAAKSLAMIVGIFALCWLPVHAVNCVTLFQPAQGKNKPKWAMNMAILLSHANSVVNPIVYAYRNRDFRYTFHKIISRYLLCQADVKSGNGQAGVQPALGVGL

SMILES	target	test	system	conditions	Ki [µM]
COc1cccc(/C=C/C(=O)c2ccccc2)c1	cathepsin B	enzyme activity, competitive inhibitor	–	pH 6.0, purified goat liver enzyme, with: BANA substrate	63.2 ± 0.3
COc1ccc(-c2nc(CSc3nc(N)c(C#N)c(-c4ccccc4)c3C#N)cs2)cc1	ADORA2B (Homo sapiens, UniProt P29275)	binding	–	–	0.272 ± 0.099
CNCCNC(=O)CN1C(=O)Cc2c([nH]c3ccc(Br)cc23)-c2ccc(Cl)cc21	Trypanothione synthetase (Leishmania infantum, UniProt A4I2Z3)	enzyme activity, competitive inhibitor	–	apparent, with: glutathionylspermidine variable	0.059
CCCCOC(=O)NS(=O)(=O)c1sc(CC(C)C)cc1-c1cccc2c1CCN(C(C)=O)C2	AGTR2	ligand displacement, radioligand	–	cell membranes	0.7
O=C(CN1CCO[C@@H](COc2cccc(Cl)c2)C1)N1CCc2ccccc21	DRD4	ligand displacement, radioligand	–	–	< 1
CCOC(=O)NS(=O)(=O)c1sc(CC(C)C)cc1-c1ccc2c(c1)CN(CC)C(=O)C2(C)C	AGTR2	ligand displacement, radioligand	–	cell membranes	1.1
CCCc1nc2ccc(Nc3ccccc3)cc2c(=O)n1Cc1ccc(-c2ccccc2-c2nnn[nH]2)cc1	AGTR2	ligand displacement, radioligand	–	–	2.99
O=c1[nH]cnc2c(CNCCCP(=O)(O)O)c[nH]c12	Hypoxanthine-guanine phosphoribosyltransferase	enzyme activity, inhibitor	–	pH 7.4	1.35
NCCCCCNC(=O)OCc1ccccc1	Serine protease 1 (PRSS1, Bos taurus, UniProt P00760)	enzyme activity, inhibitor	–	pH 7.2, 25 °C, 3.3% DMSO, with: Nα-benzoyl-L-arginine p-nitroanilide	2380 ± 70
CN(C)[C@@H](CNC(=O)NC[C@H]1Cc2ccccc21)Cc1ccccc1	DRD4	ligand displacement, radioligand	–	–	0.15
CC(=O)c1cc(O)c(=O)c(O)cc1C	Ribonuclease H1 (Homo sapiens, UniProt O60930)	enzyme activity, mixed inhibitor, FRET heteroduplex cleavage	–	wild-type, free enzyme, with: 5 mM Mg2+	17.9 ± 11
CCC1(CC)C(=O)N(c2cccc(CN3CCc4cc5c(cc4C3)OCO5)c2)C1=O	Dipeptidyl peptidase 8 (Homo sapiens, UniProt Q6V1X1)	enzyme activity, inhibitor, fluorescence	–	–	0.0027
NC(=O)N/N=C(/C=C/c1ccccc1)c1ccccc1	cathepsin B	enzyme activity, competitive inhibitor	–	pH 6.0, purified goat liver enzyme, with: BANA substrate	42.5 ± 0.2
CC(Cc1ccccc1)c1nc2ccc(N(Cc3ccccc3)C(=O)c3ccccc3)cc2c(=O)n1Cc1ccc(-c2ccccc2-c2nnn[nH]2)cc1 (centres unmarked)	AGTR2	ligand displacement, radioligand	–	–	0.12
O[C@@H]1[C@H](O)[C@@H](CNC(=S)Nc2ccccc2)N2CCC[C@@H](O)[C@H]12	Lysosomal alpha-mannosidase (Homo sapiens, UniProt O00754)	enzyme activity, inhibitor	–	with: Man-α-4MU substrate	0.61
CCOC(=O)NS(=O)(=O)c1sc(CC(C)C)cc1-c1ccc2c(c1)CCN(C(C)=O)C2	AGTR2	ligand displacement, radioligand	–	cell membranes	0.12
CNc1ccccc1C(=O)O[C@H]1[C@@H](O)[C@H](n2ccc(N)nc2=O)O[C@@H]1COP(=O)(O)OP(=O)(O)O	ADCY5 (Canis lupus, UniProt P30803)	adenylyl cyclase activity, inhibitor	Sf9 membranes	with: 5 mM MnCl2, 100 µM forskolin	0.74 ± 0.03
C=C1[C@H](O)CC(=C/C=C2\CCC[C@]3(C)[C@@H]([C@H](C)CCCC)CC[C@@H]23)C[C@H]1O	Vitamin D3 receptor	binding, radioligand competition	–	with: radiolabelled 1α,25-dihydroxyvitamin D3 1 nM	0.0003

SMILES	target	test	system	conditions	Ki [µM]
C[C@H]1CN(C2CC2)C[C@H]1NC(=O)c1cnc2c(F)ccc(F)c2c1	DRD4	ligand displacement, radioligand	–	–	1.2
CCCCCCCCCCCCNC(=O)[C@@H]1CCCN1C(=O)OCc1ccccc1	human PRCP	prekallikrein activation	HPAEC	–	> 3000
CC[C@H](C)[C@H](NC(=O)[C@H](CC(=O)O)NC(=O)[C@H](CO)NC(C)=O)C(=O)N[C@@H](CSCc1ccccc1)C(=O)N[C@@H](CC(=O)O)C(=O)N[C@@H](Cc1ccccc1)C(=O)N[C@H](C(=O)N[C@@H](CC(C)C)C(=O)N[C@@H](CCCCN)C(=O)N[C@@H](CC(N)=O)C(=O)N[C@@H](Cc1ccc(O)cc1)C(=O)N1CCC[C@H]1C(=O)O)[C@@H](C)CC	CREBBP KIX domain	binding, competitive inhibitor, fluorescence polarisation	–	with: fluorescent MLL peptide	24 ± 15
O=C(/C=C/c1ccccc1)c1ccccc1	cathepsin B	enzyme activity, competitive inhibitor	–	pH 6.0, purified goat liver enzyme, with: BANA substrate	91.4 ± 0.3
COC(=O)[C@]1(C)C=C(C(=O)OC(C)(C)C)C(=O)CC1	MAPK1	ligand displacement, FP	–	–	4.9
Cc1ccc(/C=C/C(=N\NC(N)=O)c2ccccc2)cc1	cathepsin B	enzyme activity, competitive inhibitor	–	pH 6.0, purified goat liver enzyme, with: BANA substrate	104 ± 1
Brc1cccc(C2CC(NC[C@H]3CC4(CCOCC4)CO3)C2)c1 (some centres unmarked)	TMEM97 (Homo sapiens, UniProt Q5BJF2)	ligand displacement, radioligand	–	cell membranes	0.0016
COc1ccc(/C=C/C(=O)c2ccccc2)cc1	cathepsin B	enzyme activity, competitive inhibitor	–	pH 6.0, purified goat liver enzyme, with: BANA substrate	130 ± 1
CCc1nc2ccc(N(Cc3ccccc3)C(=O)c3cccs3)cc2c(=O)n1Cc1ccc(-c2ccccc2-c2nn[nH]n2)cc1	AGTR2 (Homo sapiens, UniProt P50052, F308A)	ligand displacement, radioligand	–	cell membranes	0.012
CCOC(=O)C1(C)C=C(C(=O)OC)C(=O)CC1 (centres unmarked)	MAPK1	ligand displacement, FP	–	–	172
CCCc1nc2ccc(N(Cc3ccco3)C(=O)c3ccccc3)cc2c(=O)n1Cc1ccc(-c2ccccc2-c2nnn[nH]2)cc1	AGTR2 (Homo sapiens, UniProt P50052, F129A)	ligand displacement, radioligand	–	cell membranes	0.0102
C/C=C/C[C@@H](C)[C@@H](O)[C@H]1C(=O)N[C@@H](CC)C(=O)N(C)C(Cc2ccc(C(=O)NCCOCCNC(=O)CC[P+](c3ccccc3)(c3ccccc3)c3ccccc3)cc2)C(=O)N(C)[C@@H](CC(C)C)C(=O)N[C@@H](C(C)C)C(=O)N(C)[C@@H](CC(C)C)C(=O)N[C@@H](C)C(=O)N[C@H](C)C(=O)N(C)[C@@H](CC(C)C)C(=O)N(C)[C@@H](CC(C)C)C(=O)N(C)[C@@H](C(C)C)C(=O)N1C (some centres unmarked)	Peptidyl-prolyl cis-trans isomerase A (Rattus norvegicus, UniProt P10111)	enzyme activity, inhibitor	–	pH 7.5	0.008
CN(C)c1ccc(-n2cc(COC(=O)[C@]3(C)C=C(C(=O)OC(C)(C)C)C(=O)CC3)nn2)cc1	MAPK1	ligand displacement, FP	–	–	2.3
CC[C@H](C)[C@H](NC(=O)[C@H](CC(=O)O)NC(=O)[C@H](CO)NC(C)=O)C(=O)N[C@@H](CSCc1ccccc1)C(=O)N[C@@H](CC(=O)O)C(=O)N[C@@H](Cc1ccccc1C)C(=O)N[C@@H](C)C(=O)N[C@@H](CC(C)C)C(=O)N[C@@H](CCCCN)C(=O)N[C@@H](CC(N)=O)C(=O)N[C@@H](Cc1ccc(O)cc1)C(=O)N1CCC[C@H]1C(=O)O	CREBBP KIX domain	binding, competitive inhibitor, fluorescence polarisation	–	with: fluorescent MLL peptide	> 500
C=C1[C@H](O)CC(=C/C=C2\CCC[C@]3(C)[C@@H]([C@@H](C)CCCCO)CC[C@@H]23)C[C@H]1O	Vitamin D3 receptor	binding, radioligand competition	–	with: radiolabelled 1α,25-dihydroxyvitamin D3 1 nM	0.0003
Nc1nc2c(CNCCCP(=O)(O)O)c[nH]c2c(=O)[nH]1	Hypoxanthine-guanine phosphoribosyltransferase	enzyme activity, inhibitor	–	pH 7.4	1
Oc1cc(F)ccc1Oc1ccccc1	Enoyl-[acyl-carrier-protein] reductase [NADPH] FabI (Staphylococcus aureus, UniProt Q6GI75)	enzyme activity, inhibitor	–	–	1.97

Excerpt of the above:
SMILES	target	test	system	conditions	Ki [µM]
CCC1(CC)C(=O)N(c2cccc(CN3CCc4cc5c(cc4C3)OCO5)c2)C1=O	Dipeptidyl peptidase 8 (Homo sapiens, UniProt Q6V1X1)	enzyme activity, inhibitor, fluorescence	–	–	0.0027
NC(=O)N/N=C(/C=C/c1ccccc1)c1ccccc1	cathepsin B	enzyme activity, competitive inhibitor	–	pH 6.0, purified goat liver enzyme, with: BANA substrate	42.5 ± 0.2
CC(Cc1ccccc1)c1nc2ccc(N(Cc3ccccc3)C(=O)c3ccccc3)cc2c(=O)n1Cc1ccc(-c2ccccc2-c2nnn[nH]2)cc1 (centres unmarked)	AGTR2	ligand displacement, radioligand	–	–	0.12
